Published values of several laboratories.
Each numbered part is a random draw from the data of one study; scales do not carry over between parts.
Sequence of UniProt Q9XFM0 (whole entry, looked up): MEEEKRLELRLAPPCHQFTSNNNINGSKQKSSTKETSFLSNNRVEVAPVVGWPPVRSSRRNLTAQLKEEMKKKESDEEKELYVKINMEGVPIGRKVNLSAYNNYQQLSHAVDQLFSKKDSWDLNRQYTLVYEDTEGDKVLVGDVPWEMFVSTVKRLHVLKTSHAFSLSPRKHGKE
Sequence of UniProt Q9XED8 (whole entry, looked up): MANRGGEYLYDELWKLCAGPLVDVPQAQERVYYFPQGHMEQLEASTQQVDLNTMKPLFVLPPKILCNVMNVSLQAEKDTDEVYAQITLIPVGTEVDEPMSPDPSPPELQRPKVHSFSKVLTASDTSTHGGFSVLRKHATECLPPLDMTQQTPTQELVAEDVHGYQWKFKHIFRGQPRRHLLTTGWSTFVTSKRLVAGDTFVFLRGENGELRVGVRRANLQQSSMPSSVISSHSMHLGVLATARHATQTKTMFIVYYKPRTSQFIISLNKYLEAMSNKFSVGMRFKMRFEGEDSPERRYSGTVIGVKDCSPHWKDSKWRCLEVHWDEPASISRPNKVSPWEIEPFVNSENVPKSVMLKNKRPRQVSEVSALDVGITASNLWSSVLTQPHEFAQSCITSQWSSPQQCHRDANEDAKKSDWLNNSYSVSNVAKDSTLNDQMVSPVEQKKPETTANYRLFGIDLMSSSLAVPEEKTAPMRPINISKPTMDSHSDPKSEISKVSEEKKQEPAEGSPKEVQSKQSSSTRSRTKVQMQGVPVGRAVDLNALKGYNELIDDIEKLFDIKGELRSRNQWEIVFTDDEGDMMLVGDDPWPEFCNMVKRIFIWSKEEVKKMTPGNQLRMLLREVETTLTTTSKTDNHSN
Sequence of UniProt Q9SKN5 (whole entry, looked up): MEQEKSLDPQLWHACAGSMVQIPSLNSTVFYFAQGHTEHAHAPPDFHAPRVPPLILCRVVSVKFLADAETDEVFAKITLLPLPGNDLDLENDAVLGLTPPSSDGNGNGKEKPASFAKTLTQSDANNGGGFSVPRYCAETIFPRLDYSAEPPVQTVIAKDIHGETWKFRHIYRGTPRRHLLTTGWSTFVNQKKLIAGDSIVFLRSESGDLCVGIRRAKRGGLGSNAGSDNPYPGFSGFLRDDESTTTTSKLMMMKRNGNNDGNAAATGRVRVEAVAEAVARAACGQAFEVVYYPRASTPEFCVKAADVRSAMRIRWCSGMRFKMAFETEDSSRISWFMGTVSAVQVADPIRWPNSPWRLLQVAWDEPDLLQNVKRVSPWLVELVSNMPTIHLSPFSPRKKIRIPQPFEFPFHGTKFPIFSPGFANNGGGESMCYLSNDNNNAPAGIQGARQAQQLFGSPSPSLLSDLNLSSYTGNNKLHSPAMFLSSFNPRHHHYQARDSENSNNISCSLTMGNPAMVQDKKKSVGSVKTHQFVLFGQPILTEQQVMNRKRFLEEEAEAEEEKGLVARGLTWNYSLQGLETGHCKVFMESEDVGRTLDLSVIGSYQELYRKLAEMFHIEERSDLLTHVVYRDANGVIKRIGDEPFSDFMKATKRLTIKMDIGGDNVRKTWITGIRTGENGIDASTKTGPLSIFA
Sequence of UniProt O24410 (whole entry, looked up): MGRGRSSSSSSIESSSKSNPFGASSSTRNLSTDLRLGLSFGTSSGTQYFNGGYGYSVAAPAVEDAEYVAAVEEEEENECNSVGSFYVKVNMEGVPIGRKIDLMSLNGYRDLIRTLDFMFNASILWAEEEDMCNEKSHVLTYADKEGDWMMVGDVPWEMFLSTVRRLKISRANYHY
Sequence of UniProt Q9ZTX9 (whole entry, looked up): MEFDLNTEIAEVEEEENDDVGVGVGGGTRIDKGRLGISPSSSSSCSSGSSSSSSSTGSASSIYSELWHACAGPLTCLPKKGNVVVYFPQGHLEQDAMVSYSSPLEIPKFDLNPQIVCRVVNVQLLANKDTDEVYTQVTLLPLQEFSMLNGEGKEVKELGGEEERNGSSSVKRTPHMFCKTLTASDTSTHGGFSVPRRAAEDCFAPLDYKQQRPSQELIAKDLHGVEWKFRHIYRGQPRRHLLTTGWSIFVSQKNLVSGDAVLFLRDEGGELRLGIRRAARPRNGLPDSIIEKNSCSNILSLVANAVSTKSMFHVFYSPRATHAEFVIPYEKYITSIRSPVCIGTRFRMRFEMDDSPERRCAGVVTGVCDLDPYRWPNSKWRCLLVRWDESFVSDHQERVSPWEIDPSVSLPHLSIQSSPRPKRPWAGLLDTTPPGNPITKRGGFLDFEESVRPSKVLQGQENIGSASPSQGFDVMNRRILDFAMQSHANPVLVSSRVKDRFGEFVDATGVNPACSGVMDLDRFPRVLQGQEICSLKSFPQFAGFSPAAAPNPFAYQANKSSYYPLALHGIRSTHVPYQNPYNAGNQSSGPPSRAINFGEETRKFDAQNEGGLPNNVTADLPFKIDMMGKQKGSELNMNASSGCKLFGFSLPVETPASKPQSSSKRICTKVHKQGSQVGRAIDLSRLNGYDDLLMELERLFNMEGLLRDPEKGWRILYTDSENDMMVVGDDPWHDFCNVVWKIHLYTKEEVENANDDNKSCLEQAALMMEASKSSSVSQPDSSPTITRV
Sequence of UniProt Q8LAL2 (whole entry, looked up): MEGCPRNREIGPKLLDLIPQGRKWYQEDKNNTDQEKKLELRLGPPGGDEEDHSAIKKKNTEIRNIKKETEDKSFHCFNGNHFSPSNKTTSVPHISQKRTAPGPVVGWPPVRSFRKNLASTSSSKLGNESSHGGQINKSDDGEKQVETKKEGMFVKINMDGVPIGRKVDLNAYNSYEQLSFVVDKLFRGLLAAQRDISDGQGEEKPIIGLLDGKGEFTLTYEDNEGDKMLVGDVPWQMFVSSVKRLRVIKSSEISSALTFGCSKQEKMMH

Series 1
Target: Histone acetyltransferase KAT6A, winged helix 1, GST fusion (KAT6A, Homo sapiens, UniProt Q92794, residues 1-85)
Technique: protein binding microarray
Molecule type: double-stranded DNA, one strand shown
Sample: in vitro
Tested at: not given
Setting: 8-mer, flanks averaged, mean of 2 arrays, mostly near background
Relative to: not given
Direction: higher = stronger binding
Quantity: E-score
Residues (chain): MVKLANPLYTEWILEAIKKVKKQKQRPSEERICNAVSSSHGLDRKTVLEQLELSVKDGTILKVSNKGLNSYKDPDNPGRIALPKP
ATGCGCTA: 0.174
TACTCCGA: 0.00763
AACACAAG: -0.195
ATTGAACC: -0.186
ATCAACAC: -0.104
AGCTACCA: -0.205
GTTCAAAC: 0.00766
GCCTGAGA: -0.00502
AGAGGAGG: -0.246
GCACACTA: 0.0339
AGTCACTG: -0.0282
CAACCGTC: 0.22
ACTCGTCA: -0.0502
AGAGGTAA: -0.193
CCGTTGGC: 0.282
AATACTCA: -0.115
GACGTAAA: 0.134
AAACCCAA: -0.259
GTGAAATA: -0.143
CCTTGCGC: 0.197
AAACATGT: 0.0276
GCCTGTAC: 0.0521
ATGTTGGG: -0.0933
AATGATGC: 0.00409
GCCACAAC: -0.0992

Series 2
Target: Sal-like protein 4, full length isoform B (SALL4, Homo sapiens, UniProt Q9UJQ4-2, residues 1-616)
Technique: universal PBM
Molecule type: double-stranded DNA, one strand shown
Sample: in vitro
Tested at: not given
Setting: 8-mer, flanks averaged, mean of replicates
Direction: higher = stronger binding
Quantity: E-score
ACTCAATG: 0.0542
AAGCTTCG: -0.196
CTTAAGTA: 0.152
ACTAGCAC: -0.101
AGAAGCAC: -0.0658
ATCACCGA: 0.0801
ACTAAAGA: 0.00098
CCAGTCAC: -0.152
TGCGAGCA: -0.0653
TCATTCAA: 0.27
CAATATAC: 0.292
CGCGCCAA: -0.149
AACGGCGA: 0.0386
CGTTACCA: 0.109
AAGCGCGT: -0.17
CCAACTAC: 0.0192

Series 3
Target: RING finger protein unkempt homolog, zinc fingers 1-6, GST-SBP tag (UNK, Homo sapiens, UniProt Q9C0B0, residues 30-357)
Technique: RNA Bind-n-Seq
Molecule type: RNA
Sample: in vitro
Tested at: not given
Setting: RNA with constant flanks, ends assumed
Relative to: input RNA pool
Direction: higher = stronger binding
Quantity: bound/input enrichment
All sequences stand within: GGGAGUUCUACAGUCCGACGAUC … CAACAGAGGAUUGAGCAUCA
Target sequence (chain): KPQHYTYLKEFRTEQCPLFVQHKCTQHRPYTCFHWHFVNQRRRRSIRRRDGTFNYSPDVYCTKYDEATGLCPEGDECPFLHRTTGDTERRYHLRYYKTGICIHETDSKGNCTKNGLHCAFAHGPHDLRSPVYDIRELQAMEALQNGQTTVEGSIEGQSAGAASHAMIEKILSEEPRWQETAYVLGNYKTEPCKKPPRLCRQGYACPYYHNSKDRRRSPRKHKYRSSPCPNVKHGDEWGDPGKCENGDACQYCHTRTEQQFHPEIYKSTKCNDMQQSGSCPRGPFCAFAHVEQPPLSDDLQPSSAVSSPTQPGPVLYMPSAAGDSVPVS
UUGAAAAACACAGAUAUCAAAGUUGUUGAUUUUGGAAGUGCAACAUAUGACGACGAACAUCACCGUACUUUGGUGUCCACAAGGCACUACAGGGCUCCAGAGGUCAUUUUGGCUCUAGGU: 0.226 ratio
CCUCUUGUGGGCAAGGACAGUUUUAAUGUUGAUCCCAGCAGUGUGUGUCUUUAUUUCCUCACCCGAGCCGGAAAAAGCCCAGUGUAUUCCUCAUGAAUGCUCUCUAAACCUGUGAAGAGC: 0.105 ratio
GGGUUAUACCAGUAUAAGAACAUUUGUCAACAGGUGAACAUAAAAUCUCUGGAGGAUGUUGUCCGGGCAUAUUUGAAAAUGGCAGAGGAAAAAACUGAAGCUGCUAAAGAAGAAUCUCAG: 0.166 ratio
AUUAAUGAGGGCCUUAAAGCGGCUGACAAUGACCCCACAGCUCCACCAUAUGACUCCCUGUCCGUGUUUGACUAUGAAGGCAGUGGCUCCACUGCUGGGUCCUUGAGCUCCCUUAAUUCC: 0.291 ratio
CUUACCUCUUACAAAAAAAAGAAAAAAAAAGAAAAAGUUCAUUUCUUCAUUCUGUUUGUAUCCCGCGAAGCUGAAUGUCAGAAGCCCCUCUGUCCACACACAAAGUCUGCAUGUAUUGGU: 0.642 ratio
GCCCAGGGUCGCCAUGUAGAAGUUUUUGAGCUCCUCAAACCUCCAUCUGGAGGCCUUGGGUUCCGUGUUGUGGGACUAAGAAGUGAAAACAGAGGAGAGCUGGGAAUAUUUGUUCAAGAG: 0.155 ratio
CUUCGGGUUUCUGAGACUGUGGCAUUCACUGACGUGAAUUCAAUCCUGCGCUACCUGGCCCGAAUUGCAACUACGUCUGGGCUGUAUGGGACUAACCUGAUGGAGCACACUGAGAUUGAU: 0.201 ratio
CCAGAGGAGAUGCUGUCUAUGUACUGUGCUACUCUUUGAUUCUACUUUCCAUUGACCUCACCCGUCCUCAUGUGAAGAAUAAAAUGUCAAAAAGAGAGUUUAUUCGAAAUACGCGCCGUG: 0.0823 ratio

Series 4
Molecule: B1 (IAA15)
Technique: two-hybrid
Direction: higher = firmer interaction
Quantity: positive tests
B1: IAA15 (Arabidopsis thaliana, UniProt Q9C966); chain MSPEEYVRVWPDSGDLGGTELTLALPGTPTNASEGPKKFGNKRRFLETVDLKLGEAHENNYISSMVTNDQLVGWPPVATARKTVRRKYVKVALDGAAYLRKVDLGMYDCYGQLFTALENMFQGIITICRVTELERKGEFVATYEDKDGDLMLVGDVPWMMFVESCKRMRLMKTGDAIGL
ARF4 660-788 (Arabidopsis thaliana, UniProt Q9ZTX9); relative to: out of 4 tests: 1
IAA26 (Arabidopsis thaliana, UniProt Q8LAL2); relative to: out of 2 tests: 0
ARF10 575-693 (Arabidopsis thaliana, UniProt Q9SKN5); relative to: out of 2 tests: 0
IAA28 (Arabidopsis thaliana, UniProt Q9XFM0); relative to: out of 2 tests: 0
ARF9 519-638 (Arabidopsis thaliana, UniProt Q9XED8); weak activation fusion; relative to: out of 2 tests: 0
IAA20 (Arabidopsis thaliana, UniProt O24410); weak activation fusion; relative to: out of 4 tests: 2

Further values, each from its own experiment
GSPLAKAFTSTGL  enrichment score (human cyclin A2; peptide binding, competitive growth sequencing; peptide, Saccharomyces cerevisiae, cyclin A2-Cln2 fusion strain; mutational scanning library 1; direction not given): 0.253

Some of these lines once more (series 1):
AAACATGT: 0.0276
GCCTGTAC: 0.0521
ATGTTGGG: -0.0933
AATGATGC: 0.00409
